Experimental data pooled from the literature.
Lines come from different studies, so protocols differ. Numbers after ± are the reported error.

C[C@@H](O)[C@H](NS(=O)(=O)NS(=O)(=O)OC[C@H]1O[C@@H](n2cnc3c(N)ncnc32)[C@H](O)[C@@H]1O)C(=O)O
IC50 (tsaD/tsaC, with TsaB and TsaE (Escherichia coli, UniProt P05852+P45748); inhibitor, HPLC; pH 7.5, 23 °C, preincubation 1 min, added: ATP 1 mM and L-threonine): 45.5 ± 1.1 µM

COc1cc2nccc(Oc3ccc(NC(=S)NCCN4CCOCC4)c(Cl)c3)c2cc1C(N)=O
IC50 (FGFR1 (Homo sapiens, UniProt P11362)): 3.75 µM

CC1=C(C2=C(C)C(=O)c3c(cc(O)c(O)c3C(C)C)C2=O)C(=O)c2cc(O)c(O)c(C(C)C)c2C1=O (racemic)
IC50 (Bcl-2-like protein 1, transmembrane domain deleted (BCL2L1, Homo sapiens, UniProt Q07817); binding, fluorescence polarization; added: FITC-Bim BH3 peptide): 0.129 ± 0.004 µM

CCc1cccc2c(C(=O)COC(=O)C34CC5CC(CC(Br)(C5)C3)C4)c[nH]c12
IC50 (D14 (Arabidopsis thaliana, UniProt Q9SQR3); enzyme activity, inhibitor): 2.4 µM

O=C(Nc1ccc(OC(F)(F)F)cc1)N1CCC(Cc2cccc(Oc3ccc(C(F)(F)F)cn3)c2)CC1
IC50 (Faah (Mus musculus, UniProt O08914); enzyme activity, inhibitor, fluorescence; mouse tissue homogenate; 60 min preincubation): 0.066 µM

CNC(=S)Nc1cccc([N+](=O)[O-])c1
IC50 (Urea transporter 1 (Slc14a1, Rattus norvegicus, UniProt P97689); urea transport, inhibitor; rat erythrocytes; 15 min): 300 ± 100 µM

CC1(CO)CCCC2(C)C1CCC1(C)c3cocc3CCC12 (centres unmarked)
IC50 (Androgen receptor (AR, Homo sapiens, UniProt P10275); reporter gene, antagonist, luciferase): 0.96 µM

CC(C)c1c(-c2cccc3[nH]ccc23)[nH]c(C(=O)O)c1-c1c(Cl)ccc2[nH]ccc12
IC50 (E3 ubiquitin-protein ligase RING2, with BMI1 (RNF2, Homo sapiens, UniProt Q99496); RING1B-BMI1-nucleosome binding, AlphaScreen): 2 µM

NCc1ccc(NC(=O)c2ccc(C(F)(F)F)cc2O)cc1
IC50 (TMPRSS2 (Homo sapiens, UniProt O15393); enzyme activity, inhibitor, fluorescence; with preincubation): 30.2 µM

COCCCCN1CCc2c(Cc3ccc(Cl)cc3)[nH]c3c(OC)ccc(c23)C1=O
IC50 (PDE5A (Homo sapiens, UniProt O76074); enzyme activity, inhibitor): 0.014 µM

CC(C)C(C(=O)Nc1ccc(C(=O)NO)cc1)c1ccccc1 (centres unmarked)
IC50 (HDAC (Lucilia cuprina egg nuclear extract); enzyme activity, inhibitor, fluorometric): 0.21 µM

CC(C)Sc1cccc(O)c(=O)c1O
IC50 (Protein P, RNase H domain (P, Hepatitis B virus genotype D subtype ayw, UniProt P03156); RNase H activity, inhibitor; Hepatitis B virus): 184 ± 27 µM

CN(C)C/C=C/C(=O)Nc1ccc2nc(NCCCCCN(C)C)nc(NCCCCCCN(C)C)c2c1
IC50 (Chromodomain Y-like protein 2, chromodomain (CDYL2, Homo sapiens, UniProt Q8N8U2); methyl-lysine binding, TR-FRET): > 100 µM

CCc1nc2cc(C)c(Oc3ccc(OC(F)(F)F)cc3)cc2c(O)c1C
IC50 (cytochrome b (Plutella xylostella, UniProt A0A0U1XI17); succinate-cytochrome c oxidoreductase activity, inhibitor; Plutella xylostella, mitochondria; 4 min preincubation, 30 °C): 0.018 µM

NC(Cc1cn(CCc2ccccc2F)nn1)c1ccccc1 (centres unmarked)
IC50 (Endothiapepsin (EAPA, Cryphonectria parasitica, UniProt P11838); enzyme activity, inhibitor, fluorescence): 94 µM

O=C(NCCCN1CCC(Cc2ccccc2)CC1)c1cc(Cl)cc(Cl)c1
IC50 (SLC6A4 (Homo sapiens, UniProt P31645); transporter uptake): 0.19 to 0.84 µM

CC(C)CCC[C@@H](C)[C@H]1CC[C@H]2[C@@H]3CC=C4C[C@@H](OS(=O)(=O)O)CC[C@]4(C)[C@H]3CC[C@]12C
IC50 (Plasminogen (PLG, Homo sapiens, UniProt P00747); enzyme activity, inhibitor, absorbance; pH 7.4): 84.9 µM

Some of these lines once more:
COc1cc2nccc(Oc3ccc(NC(=S)NCCN4CCOCC4)c(Cl)c3)c2cc1C(N)=O
IC50 (FGFR1 (Homo sapiens, UniProt P11362)): 3.75 µM

CC1=C(C2=C(C)C(=O)c3c(cc(O)c(O)c3C(C)C)C2=O)C(=O)c2cc(O)c(O)c(C(C)C)c2C1=O (racemic)
IC50 (Bcl-2-like protein 1, transmembrane domain deleted (BCL2L1, Homo sapiens, UniProt Q07817); binding, fluorescence polarization; added: FITC-Bim BH3 peptide): 0.129 ± 0.004 µM
